Experimental data pooled from the literature.
Each line is one published result; not all experiments were run side by side. ± marks the error that the study gave.

Structure (SMILES) | target or system | test | conditions | measurement | value
Cc1ncc(CSSCc2cnc(C)c(O)c2CO)c(CO)c1O.Cl.Cl | Nedd8-cullin1 interaction | neddylation, AlphaScreen | 100 µM | inhibition | 13.7%
CCn1cc(-c2cc(Cn3ccoc3=N)cc3c2CCN([C@@H](C)c2cc(OC)ccn2)C3=O)c(C(F)(F)F)n1 | HEC-1B | cell growth, inhibitor | 120 h | EC50 | 0.0617 µM
Fc1ccc(Oc2ccc(Nc3ccc4ncc(OCC5CCNCC5)nc4c3)cc2)cc1 | Jurkat | cell growth, XTT | 7 days | EC50 | 0.77 ± 0.1 µM
Cc1ccc(-c2nc3ccccc3o2)cc1NC(=O)c1cc([N+](=O)[O-])c(F)cc1Cl | BJ fibroblasts | cell growth, CellTiter-Glo | 72 h | EC50 | > 16 µM
CCn1cc(-c2cc(Cn3ccnc3)cc3c2CCN([C@H](c2cc(OC)ccn2)C2CC2)C3=O)c(C(F)(F)F)n1 | HT115 | cell growth, inhibitor | 120 h | EC50 | 0.211 µM
Cc1ccc(-c2nc3ccccc3s2)cc1NC(=O)c1cc([N+](=O)[O-])c(NC2CCN(C)CC2)cc1Cl | BJ fibroblasts | cell growth, CellTiter-Glo | 72 h | EC50 | > 9.17 µM
COc1cnc2cccc(N3CCc4c(cc(Cn5ccnc5C)cc4-c4cn(C)nc4C(F)(F)F)C3=O)c2c1 | HGC-27 | cell growth, inhibitor | 120 h | EC50 | > 30 µM
Clc1ccc(COc2cncc(-c3cnn(C4CCNCC4)c3)c2)c(Cl)c1 | HMC3 | phagocytosis, high-content imaging | geometric mean, with: pHrodo-myelin uptake | EC50 | 0.767 µM
NC[C@H](OCC(=O)N1CCC[C@H](C(=O)NCc2nc(-c3ccc(C(F)(F)F)cc3)cs2)C1)c1ccccc1 | Jurkat | cytotoxicity |  | EC50 | ~10 µM
Cc1cc(Cl)c(Cl)cc1NC(=O)c1ccc(N2CCNCC2)nc1 | BJ fibroblasts | cell growth, CellTiter-Glo | 72 h | EC50 | > 24.4 µM
CCn1c(=O)/c(=C2\Sc3cc(Cl)ccc3N2C)s/c1=C\c1scc[n+]1Cc1ccccc1.[Cl-] | MYBPC3 iPSC-cardiomyocytes | measured: MYH | 24 h | EC50 | inactive
c1ccc(COc2ccc(Nc3ccc4ncc(OCC5CCNCC5)nc4c3)cc2)cc1 | Jurkat | cell growth, XTT | 7 days | EC50 | 2.3 ± 0.17 µM
CCC(C)(C)C(=O)O[C@H]1C[C@@H](C)C=C2C=C[C@H](C)[C@H](CC[C@@H]3C[C@@H](O)CC(=O)O3)[C@H]21 | Nedd8-cullin1 interaction | neddylation, AlphaScreen | 100 µM | inhibition | 30.7%
C[C@]12CCCN1CC1=NNC(=O)c3cc(F)cc4[nH]c2c1c34 | RKO colorectal cancer cells | cell viability | concentration not given, with: with temozolomide | EC50 | > 3 µM
COCC(=O)N1CCC[C@H](C(=O)NCc2nc(-c3ccc(-c4ccccc4)cc3)cs2)C1 | Jurkat | cytotoxicity |  | EC50 | 5.7 µM
CC(=O)O[C@H]1C(=O)[C@@]2(C)[C@H]([C@H](OC(=O)c3ccccc3)[C@]3(O)C[C@H](OC(=O)[C@H](O)[C@@H](NC(=O)c4ccccc4)c4ccccc4)C(C)=C1C3(C)C)[C@]1(OC(C)=O)CO[C@@H]1C[C@@H]2O | SKGT4 |  | 120 h | EC50 | 0.00569 µM
C=C(NC(=O)C(=C)NC(=O)c1csc(C2=N[C@@H]3c4csc(n4)[C@H]4NC(=O)c5csc(n5)[C@H]([C@](C)(O)[C@@H](C)O)NC(=O)[C@H]5CSC(=N5)/C(=C/C)NC(=O)[C@H]([C@@H](C)O)NC(=O)c5csc(n5)[C@]3(CC2)NC(=O)[C@H](C)NC(=O)C(=C)NC(=O)[C@H](C)NC(=O)[C@H]([C@@H](C)CC)N[C@@H]2C=Cc3c([C@H](C)O)cc(nc3[C@H]2O)C(=O)O[C@@H]4C)n1)C(N)=O | NCI-H358 | cell viability |  | EC50 | 1.8 µM
S=C(NCc1ccc2c(c1)OCO2)N1CCN(c2ncnc3c2oc2ccccc23)CC1 | iPSC-derived maturing neurons | CellTiter-Blue metabolic | 24 h, 4-week maturation | EC50 | 2.5 µM
C=CCNC1=C2C[C@@H](C)C[C@H](OC)[C@H](O)[C@@H](C)/C=C(\C)[C@H](OC(N)=O)[C@@H](OC)/C=C\C=C(/C)C(=O)NC(=CC1=O)C2=O | MYBPC3 iPSC-cardiomyocytes | MYH level | 24 h | EC50 | 36.8 µM
